Assay results of several laboratories.
Lines come from different studies, so protocols differ. Several values in a cell are separate wells, animals, samples, runs or records. ± marks the error that the study gave.
BEST2: Bestrophin-2a (BEST2, Homo sapiens, UniProt Q8NFU1)
TOP2A: DNA topoisomerase 2-alpha (TOP2A, Homo sapiens, UniProt P11388)

CC[C@@H](C)[C@@H](NC(=O)[C@@H](Cc1ccc(O)cc1)NC(=O)[C@H]1CCCN1C(=O)[C@@H](CCCNC(=N)N)NC(=O)[C@H](N)Cc1c[nH]cn1)C(=O)N[C@H](C)C(=O)N[C@H](Cc1c[nH]cn1)C(=O)N[C@H](CCCNC(=N)N)C(=O)N[C@@H](C(=O)N[C@H](Cc1ccc(O)cc1)C(=O)N[C@H](CO)C(=O)N[C@H](Cc1ccccc1)C(N)=O)C(C)C — surface expression (Transferrin receptor protein 1 (Tfrc, Mus musculus, UniProt Q62351); flow cytometry; MC-38; 24 h, unit not given; relative to: 0 h): 0.893 and 0.885
COC(=O)C1CCN(C(=O)c2ccc(N(CCCO)Cc3cnc4nc(N)nc(N)c4n3)cc2)CC1 — partition index (Pteridine reductase 1 (Leishmania major, UniProt Q01782); hDHFR weight 10; relative to: LmPTR1, LmDHFR over hDHFR, 1.0 selective, 0.0 non-selective): 0.9
CC1(C)O[C@@H]2[C@@H](CO[C@@]3(COS(N)(=O)=O)OC(C)(C)O[C@@H]23)O1 — intrinsic binding ΔG (Carbonic anhydrase 4 (CA4, Homo sapiens, UniProt P22748); ITC; concentration not given, 25 °C): -13 kcal/mol
COCCC(=O)N1CCC(Oc2ccccc2)C1 (stereo not shown) — fold enrichment (DNA damage-binding protein 1 (DDB1, Homo sapiens, UniProt Q16531); binding, affinity selection mass spectrometry; relative to: other proteins in batch): 1.59
[Cl-].[Na+] — equilibrium GDP/GMP ratio (GUK1 (Homo sapiens, UniProt Q16774); enzyme activity, 1H NMR): 0.385 and 0.355 and 0.493
CCCCCCOC(=O)c1ccccc1C(=O)c1ccc(N(CC)CC)cc1O — PC50 (Androgen receptor (AR, Homo sapiens, UniProt P10275); reporter gene, antagonist): 2.4 µM
O=C(O)c1ccc([N+](=O)[O-])cc1 — current density (BEST2; whole-cell patch clamp; HEK293 transiently expressing channel; concentration not given, membrane potential -80 mV): -91.5 pA/pF and -290 pA/pF and -244 pA/pF and -201 pA/pF and -219 pA/pF
Nc1nc2c(ncn2[C@@H]2O[C@H](COP(=O)(O)O)[C@@H](O)[C@H]2O)c(=O)[nH]1 — reaction rate (GUK1 (Homo sapiens, UniProt Q16774, Y53A); enzyme activity, NADH-coupled; 500 µM): 3.75 s⁻¹ and 5.18 s⁻¹ and 4.14 s⁻¹
O=c1nc(SCc2cc(F)cc(C(F)(F)F)c2)nc(SCc2ccc3ccccc3n2)[nH]1 — mean decatenated DNA (TOP2A; decatenation; 125 µM): 0%
O=C(COP(=O)(O)O)[C@@H](O)[C@H](O)[C@H](O)COP(=O)(O)O — minimum concentration, maximal activation (Pyruvate kinase PKM (PKM, Homo sapiens, UniProt P14618); pyruvate kinase activity, activator; SK-HEP1 cell lysate; with: AIM): 1750 ± 588 nM
O=S(=O)(O)C1CCNCC1 — normalised MST signal (Sodium- and chloride-dependent taurine transporter (SLC6A6, Homo sapiens, UniProt P31641, G62A); binding, microscale thermophoresis; 31.3 µM, room temperature, with: 50 nM labelled protein; higher = more binding): 0.00823
N[C@@H](Cc1ccccc1)C(=O)O — cAMP level (Beta-2 adrenergic receptor (ADRB2, Homo sapiens, UniProt P07550); HEK293 expressing β2AR; 1 µM): 18.3 pmol/mg protein and 19 pmol/mg protein and 17.7 pmol/mg protein and 18.9 pmol/mg protein and 19.8 pmol/mg protein
CCN(CCO)CCCC(C)Nc1ccnc2cc(Cl)ccc12 (stereo not shown) — activation V1/2 (Sodium channel protein type 5 subunit alpha (SCN5A, Homo sapiens, UniProt Q14524); sodium current; 30 µM): -48.9 ± 3.6 mV
C=CC(=O)N1CCC(COCC(=O)N2CCN(c3nc(-c4cnc(N)nc4C(F)F)nc(N4CCOC[C@@H]4C)n3)CC2)CC1 — remaining binding (Myosin light chain kinase (MYLK3, Homo sapiens, UniProt Q32MK0); KINOMEscan; 1 µM): 99%
CC(C)c1ccc(CSc2nc(SCc3ccc4sccc4c3)[nH]c(=O)n2)cc1 — decatenated DNA (TOP2A; decatenation; 7.8 µM, replicate 2): 100%
C[C@@H](O)[C@H](NC(=O)[C@H](Cc1ccc(O)cc1)NC(=O)[C@H](Cc1ccc(O)cc1)NC(=O)[C@H](CO)NC(=O)[C@H](CCCNC(=N)N)NC(=O)[C@H](Cc1c[nH]cn1)NC(=O)[C@@H](N)Cc1c[nH]c2ccccc12)C(=O)N[C@@H](Cc1c[nH]c2ccccc12)C(=O)N[C@@H](CC(N)=O)C(=O)NCCCC[C@H](NC(=O)[C@H](CC(N)=O)NC(=O)[C@H](Cc1c[nH]c2ccccc12)NC(=O)[C@@H](NC(=O)[C@H](Cc1ccc(O)cc1)NC(=O)[C@H](Cc1ccc(O)cc1)NC(=O)[C@H](CO)NC(=O)[C@H](CCCNC(=N)N)NC(=O)[C@H](Cc1c[nH]cn1)NC(=O)[C@@H](N)Cc1c[nH]c2ccccc12)[C@@H](C)O)C(=O)NCCCC[C@H](NC(=O)[C@H](CCCCNC(=O)[C@H](CC(N)=O)NC(=O)[C@H](Cc1c[nH]c2ccccc12)NC(=O)[C@@H](NC(=O)[C@H](Cc1ccc(O)cc1)NC(=O)[C@H](Cc1ccc(O)cc1)NC(=O)[C@H](CO)NC(=O)[C@H](CCCNC(=N)N)NC(=O)[C@H](Cc1c[nH]cn1)NC(=O)[C@@H](N)Cc1c[nH]c2ccccc12)[C@@H](C)O)NC(=O)[C@H](CC(N)=O)NC(=O)[C@H](Cc1c[nH]c2ccccc12)NC(=O)[C@@H](NC(=O)[C@H](Cc1ccc(O)cc1)NC(=O)[C@H](Cc1ccc(O)cc1)NC(=O)[C@H](CO)NC(=O)[C@H](CCCNC(=N)N)NC(=O)[C@H](Cc1c[nH]cn1)NC(=O)[C@@H](N)Cc1c[nH]c2ccccc12)[C@@H](C)O)C(=O)N[C@@H](CCCCN)C(=O)N[C@@H](CCCCN)C(=O)N[C@@H](CCCCN)C(N)=O — fold reduction of blocking (Programmed cell death 1 ligand 1, with PD-1 (CD274, Homo sapiens, UniProt Q9NZQ7); PD-1 binding, inhibitor, competitive ELISA; 2.5 µM; relative to: PBS over 2% BSA): 1 fold
CC1CCCN(C(=O)c2cc3ncccn3n2)C1 (stereo not shown) — fold enrichment (Histone-lysine N-methyltransferase SETDB1, triple tudor domain (SETDB1, Homo sapiens, UniProt Q15047); binding, affinity selection mass spectrometry; relative to: other proteins in batch): 0.596
O=C(O)c1ccc(O)cc1 — current density (BEST2; whole-cell patch clamp; HEK293 transiently expressing channel; concentration not given, membrane potential 80 mV): 96.2 pA/pF and 165 pA/pF and 221 pA/pF and 113 pA/pF and 131 pA/pF and 199 pA/pF
CC(C)=CCC/C(C)=C/CC/C(C)=C/COP(=O)(O)OP(=O)(O)O — kcat (Protein farnesyltransferase (Rattus norvegicus, UniProt Q02293+Q04631); peptide prenylation, substrate; 2.0 µM, pH 7.5, 25 °C, Protein farnesyltransferase 20 nM, with: C10-Alk or C15-Alk isoprenoid 0.25 to 16 µM): 0.21 ± 0.01 s⁻¹
CCc1cnn2c(NCc3ccc[n+]([O-])c3)cc(N3CCCC[C@H]3CCO)nc12 — chemical shift change (Bromodomain-containing protein 4 (BRD4, Homo sapiens, UniProt O60885); 19F NMR, item: tyrosine 97; 24 µM; relative to: free protein): -0.037 ppm
N[C@@H](CC(=O)O)C(=O)O — Km (aspartate racemase; HPLC; Pseudomonas chlororaphis; ATP, MgCl2, PLP, DTT, with: D-aspartate substrate): 7.73 ± 0.88 mM
CCCCC[C@H](O)/C=C/[C@H]1[C@H](O)CC(=O)[C@@H]1C/C=C\CCCC(=O)O — Emax (Prostaglandin E2 receptor EP1 subtype (PTGER1, Homo sapiens, UniProt P34995, W310A); IP1 accumulation, agonist; AD293; 1 h, EP1 W310A mutant): 33 ± 6.99%
CN1CCN(c2cc(-c3ccncc3)c(-c3ccc4ccccc4c3)nn2)CC1 — activation (Secretin receptor (SCTR, Homo sapiens, UniProt P47872); agonist, FLIPR calcium; 12.5 µM): 3.8%
O=c1nc(SCc2cc(F)cc(C(F)(F)F)c2)nc(SCc2ccc3nc(Cl)ccc3c2)[nH]1 — linear DNA (TOP2A; DNA cleavage; 7.8 µM, replicate 2): 0%
CC1(C)C(/C=C/C=C2/N(CCCc3ccccc3)c3ccc(Cl)cc3C2(C)C)=[N+](CCCc2ccccc2)c2ccc(Cl)cc21.[Br-] — Hill coefficient (Protein arginine N-methyltransferase 6 (PRMT6, Homo sapiens, UniProt Q96LA8); inhibitor, filter binding; with: R4 peptide substrate): 4.96
Nc1ccc(C(=O)O)cc1 — current density (BEST2; whole-cell patch clamp; HEK293 transiently expressing channel; concentration not given, membrane potential 80 mV): 82.6 pA/pF and 199 pA/pF and 172 pA/pF and 280 pA/pF and 326 pA/pF and 250 pA/pF
O=c1nc(SCc2cc(F)cc(C(F)(F)F)c2)nc(SCc2cccc(C(F)(F)F)c2)[nH]1 — decatenated DNA (TOP2A; decatenation; 31.25 µM, replicate 1): 27.6%
CC1=C(Nc2cccc(C3(NCCc4ccc(C(F)(F)F)c(Cl)c4)CCC3)c2)C(=O)N(C2CCC(=O)NC2=O)C1=O (stereo not shown) — Dmax (Cereblon/Ikaros (Homo sapiens, UniProt Q13422+Q96SW2); protein degradation, degrader, HiBiT luminescence; Jurkat): 53%
Nc1nc2c(ncn2[C@H]2C[C@@H]3OP(=O)(O)OC[C@H]3O2)c(=O)[nH]1 — relative binding affinity (anti-cGMP antibody; antibody binding, competitive cGMP EIA; concentration not given, acetylated samples; relative to: EC50 cGMP over EC50 cpd, higher = stronger binding): 0.0521
C[C@H](CCC(C)(C)O)[C@H]1CC[C@H]2[C@@H]3CC=C4C[C@@](C)(O)CC[C@]4(C)[C@H]3CC[C@]12C — current response (Glutamate NMDA receptor; GRIN1/GRIN2B (GRIN1/GRIN2B, Homo sapiens, UniProt Q05586+Q13224, L551A); positive allosteric modulator, two-electrode voltage clamp; Xenopus oocytes expressing GluN2B-L551A; 10 µM, 0.02% cremophor, with: 100 µM glutamate and glycine; relative to: without compound): 313 ± 29%
Cc1n[nH]c2ccc(-c3cc(OC[C@@H](N)Cc4ccccc4)cnc3-c3ccoc3)cc12 — log2 fold change (Mitogen-activated protein kinase MKC1 (MKC1, Candida albicans, UniProt P43068); kinase binding, competitor, MIB/MS competition, item: MKC1; Candida albicans cell lysate; 1 µM; relative to: DMSO): 0.0129
C[C@@H]1C[C@H](Nc2ccccc2)c2cc(F)ccc2N1C(=O)c1cnc(Cl)nc1 — pIC50 Z-score (Ecdysone receptor (Aedes albopictus, UniProt Q9U3Y4); ligand binding, inhibitor; intact cells; with: [3H]ponasterone A; direction not given): -1.8
Nc1ncnc2c1ncn2[C@@H]1O[C@H](COP(=O)(O)CP(=O)(O)OP(=O)(O)O)[C@@H](O)[C@H]1O — specific binding (P2X purinoceptor 1 (P2RX1, Homo sapiens, UniProt P51575, K215A); saturation binding; HEK293; 130 nM): 5250 CCPM and 4290 CCPM
CCC1(O)CCCN(C(=O)c2ccc(-c3ccc(F)c(NC(=O)CCl)c3)cc2)C1 (stereo not shown) — protein adduct (DNA dC->dU-editing enzyme APOBEC-3B, C-terminal domain (Homo sapiens, UniProt Q9UH17); covalent modifier, intact protein mass spectrometry, item: adduct +25721 Da; 25 µM, 3 h, 1-fold molar excess): 51.5%
Nc1nc2c(ncn2[C@@H]2O[C@@H]3COP(=O)(O)O[C@H]3[C@H]2O)c(=O)[nH]1 — Hill coefficient (Cone cGMP-gated channel (Morone saxatilis, UniProt Q3I0N1+Q3I0N2); channel current, agonist, suction electrode; cone outer segments; with: 20 µM Ca2+): 2.11 ± 0.49
CC(C)(C)OC(=O)N1CCc2cc(CCOCCCCCc3ccccc3)ccc21 — Emax (ATP2A2 (Sus scrofa, UniProt P11607); ATPase Vmax increase, activator; pig microsomes; 0.1 to 50 µM; relative to: vehicle): ~25%
C=CC(=O)N1CCC[C@@H](n2nc(-c3ccc(Oc4ccccc4)cc3)c3c(N)ncnc32)C1 — remaining activity (Proto-oncogene tyrosine-protein kinase receptor Ret (RET, Homo sapiens, UniProt P07949); 10 µM): 63.9%
CC[S+]([O-])c1nc(-c2ccccc2)cc(C(F)(F)F)n1 (stereo not shown) — Tm2 (Importin subunit beta-1 (KPNB1, Homo sapiens, UniProt Q14974, C585A); thermal shift; 30 µM, 2 h): 50.4 °C
O=C1NC(=O)C(c2cnc3ccccn23)=C1c1cn2c3c(cc(F)cc13)CN(C(=O)N1CCCCC1)CC2 — Hill slope (Serine/threonine-protein kinase N1 (PKN1, Homo sapiens, UniProt Q16512); inhibitor): -0.882
COc1cc(-c2cc(C(C)=O)n3ccccc23)c(OC)cc1Cn1ccnc1 — ΔTm (PHIP, BD2 (Homo sapiens, UniProt Q8WWQ0)): -0.5 °C
